Measured values gathered from unrelated publications.
Parts stem from different laboratories: compare values within a part only. Positions count from the first letter of the parent shown.

Study 1 — target: CCNA2, cyclin fold, Cln2 fusion (human); method: yeast growth competition, sequencing; medium: yeast; setting: strong parent motif; relative to: not given; direction: higher = stronger binding; starting sequence: viral docking peptide; KGVKRKLFAEDSS
Substitution	normalised enrichment score
KGVKQKLFAEDSS [R5Q]	2.79
KGVIRKLFAEDSS [K4I]	5.41
KGVKRKLFAEDLS [S12L]	6.45
KKVKRKLFAEDSS [G2K]	6.63
KGVKRKLFAEDCS [S12C]	6.28
KGVKRKLNAEDSS [F8N]	-0.0325
KGVKRGLFAEDSS [K6G]	3.24
KGVKRKLFPEDSS [A9P]	6.12
KGVWRKLFAEDSS [K4W]	3.88
KGVKCKLFAEDSS [R5C]	3.62
KGNKRKLFAEDSS [V3N]	0.668
KGVKRKLFAEDGS [S12G]	5.99
KRVKRKLFAEDSS [G2R]	6.39
KGVKRKIFAEDSS [L7I]	2.5
KGVKRVLFAEDSS [K6V]	5.42
KGVKTKLFAEDSS [R5T]	2.4
KGVKRWLFAEDSS [K6W]	1.07
KGVKRKLFAEMSS [D11M]	5.77
KGVARKLFAEDSS [K4A]	6.56
KGVKRKLFAEDES [S12E]	6.02
KGVKRKLFAFDSS [E10F]	5.38
KGVKRALFAEDSS [K6A]	6.05
KGEKRKLFAEDSS [V3E]	0.51
KGVKSKLFAEDSS [R5S]	0.373
KGVKRKLFAESSS [D11S]	6.34

Study 2 — method: protein-binding microarray; molecule type: double-stranded DNA, one strand shown; medium: in vitro; tested at: 940 nM top; setting: 60-bp whole probe; together with: salmon DNA 0.4 mg/ml; relative to: random background probes; direction: higher = stronger binding; constant ends, left off below: GCCTAGCAC … GTCTTGATTCGCTTGACGCTGCTG
Target: Interferon regulatory factor 5, full length, phosphomimetic (IRF5, Homo sapiens, UniProt Q13568-2, residues 1-514, S451D/S453D/S456D/S462D)
Oligonucleotide	fitted relative affinity
GAAGATATCAGTATCGAGACGTGCTAG	1.68 z-score
GACCGTATCCTACTGCTGACGTGCTAG	0.145 z-score
TTAGGTCTGGACTATCGGTTAGTGCTA	-0.208 z-score
TCATACATGGGTTTTCAGACTGTGCTA	0.0788 z-score
TTTTCATTATTGTGTCAACTTGTGCTA	1.48 z-score
TCATATTTGTTTCCATTACTGTGCTAG	1.74 z-score
TTATGTATCGGTATCGGTTAGTGCTAG	6.92 z-score
TCAGGTATCGGACTGGGTTAGTGCTAG	2.49 z-score

Study 3 — method: protein binding microarray; molecule type: double-stranded DNA, one strand shown; medium: in vitro; tested at: not given; relative to: not given; direction: higher = stronger binding
Target: Histone acetyltransferase KAT6A, winged helix 1, GST fusion (KAT6A, Homo sapiens, UniProt Q92794, residues 1-85)
Setting: 8-mer, flanks averaged, mean of 2 arrays, mostly near background
Construct (chain): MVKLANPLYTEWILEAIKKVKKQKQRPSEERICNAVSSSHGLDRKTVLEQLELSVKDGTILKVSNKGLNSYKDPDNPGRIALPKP
Oligonucleotide	E-score
GCGGCCAA	0.213
AGGCTACG	-0.0184
CCACTATC	-0.26
GCTCTCCA	-0.263
TACATTAA	-0.183
CAAAGCCA	-0.211
GAAAAACC	-0.0264
ATTCATCC	-0.122

Study 4 — target: MAFK, bZIP domain (human); method: DHFR protein complementation; medium: yeast; relative to: wild-type JUN-FOS pair; direction: higher = stronger binding
Setting: single substitutions, most at no-binding floor
Starting sequence: JUN, bZIP domain (human); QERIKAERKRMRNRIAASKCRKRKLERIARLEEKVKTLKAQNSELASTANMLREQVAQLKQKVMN; partner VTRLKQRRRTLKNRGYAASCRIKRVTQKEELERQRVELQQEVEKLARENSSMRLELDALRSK
Substitution	binding fitness
R53H	-1.52 natural log
K36C	-1.44 natural log
V35A	-1.5 natural log
A40C	-1.54 natural log
E54T	-1.51 natural log
L45M	-1.41 natural log
K36T	-1.45 natural log
A46Y	-1.57 natural log

Other studies, line by line — tested at: 10 µM
SMILES	target or system	test	conditions	scale	endpoint	value
CC(=O)O[C@H]1C[C@H](O[C@H]2[C@@H](O)C[C@H](O[C@H]3[C@@H](O)C[C@H](O[C@H]4CC[C@@]5(C)[C@H](CC[C@@H]6[C@@H]5C[C@@H](O)[C@]5(C)[C@@H](C7=CC(=O)OC7)CC[C@]65O)C4)O[C@@H]3C)O[C@@H]2C)O[C@H](C)[C@H]1O[C@@H]1O[C@H](CO)[C@@H](O)[C@H](O)[C@H]1O	mouse MPNST tumor cells	high-content nuclear imaging, measured: cell number	12 h, mean of 2 replicates	relative to: plate mean, higher = more cells	nuclei count	0.324 z-score
NC(=NCc1ccc(Cl)cc1)SCCCc1cnc[nH]1	Sarcocystis neurona	parasite activity	96 h		activity class	inactive
